# Results pooled from the literature.
# Each numbered part is a random draw from the data of one study; scales do not carry over between parts.
# Chain of UniProt Q9UKI8 (whole entry, looked up): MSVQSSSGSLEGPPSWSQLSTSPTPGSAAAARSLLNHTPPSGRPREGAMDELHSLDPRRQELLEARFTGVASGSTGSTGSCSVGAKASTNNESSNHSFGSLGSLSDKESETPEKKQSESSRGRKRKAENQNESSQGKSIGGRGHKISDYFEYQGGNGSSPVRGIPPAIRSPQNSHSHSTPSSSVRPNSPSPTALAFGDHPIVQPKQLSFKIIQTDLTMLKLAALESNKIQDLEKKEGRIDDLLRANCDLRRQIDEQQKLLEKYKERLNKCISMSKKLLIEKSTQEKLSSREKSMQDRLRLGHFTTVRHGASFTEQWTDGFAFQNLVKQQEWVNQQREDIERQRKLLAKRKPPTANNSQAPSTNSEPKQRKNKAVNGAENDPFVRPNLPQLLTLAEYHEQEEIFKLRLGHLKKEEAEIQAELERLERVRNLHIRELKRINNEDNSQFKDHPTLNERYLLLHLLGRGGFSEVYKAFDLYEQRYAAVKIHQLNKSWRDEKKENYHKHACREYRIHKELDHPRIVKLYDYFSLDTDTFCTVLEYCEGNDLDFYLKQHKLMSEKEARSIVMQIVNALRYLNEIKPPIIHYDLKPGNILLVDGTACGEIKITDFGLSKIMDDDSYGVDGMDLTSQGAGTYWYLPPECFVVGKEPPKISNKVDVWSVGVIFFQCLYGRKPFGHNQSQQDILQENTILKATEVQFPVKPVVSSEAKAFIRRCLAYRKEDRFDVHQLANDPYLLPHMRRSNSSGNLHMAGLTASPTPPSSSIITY
# Chain of UniProt Q9UM73 (whole entry, unmodified, looked up): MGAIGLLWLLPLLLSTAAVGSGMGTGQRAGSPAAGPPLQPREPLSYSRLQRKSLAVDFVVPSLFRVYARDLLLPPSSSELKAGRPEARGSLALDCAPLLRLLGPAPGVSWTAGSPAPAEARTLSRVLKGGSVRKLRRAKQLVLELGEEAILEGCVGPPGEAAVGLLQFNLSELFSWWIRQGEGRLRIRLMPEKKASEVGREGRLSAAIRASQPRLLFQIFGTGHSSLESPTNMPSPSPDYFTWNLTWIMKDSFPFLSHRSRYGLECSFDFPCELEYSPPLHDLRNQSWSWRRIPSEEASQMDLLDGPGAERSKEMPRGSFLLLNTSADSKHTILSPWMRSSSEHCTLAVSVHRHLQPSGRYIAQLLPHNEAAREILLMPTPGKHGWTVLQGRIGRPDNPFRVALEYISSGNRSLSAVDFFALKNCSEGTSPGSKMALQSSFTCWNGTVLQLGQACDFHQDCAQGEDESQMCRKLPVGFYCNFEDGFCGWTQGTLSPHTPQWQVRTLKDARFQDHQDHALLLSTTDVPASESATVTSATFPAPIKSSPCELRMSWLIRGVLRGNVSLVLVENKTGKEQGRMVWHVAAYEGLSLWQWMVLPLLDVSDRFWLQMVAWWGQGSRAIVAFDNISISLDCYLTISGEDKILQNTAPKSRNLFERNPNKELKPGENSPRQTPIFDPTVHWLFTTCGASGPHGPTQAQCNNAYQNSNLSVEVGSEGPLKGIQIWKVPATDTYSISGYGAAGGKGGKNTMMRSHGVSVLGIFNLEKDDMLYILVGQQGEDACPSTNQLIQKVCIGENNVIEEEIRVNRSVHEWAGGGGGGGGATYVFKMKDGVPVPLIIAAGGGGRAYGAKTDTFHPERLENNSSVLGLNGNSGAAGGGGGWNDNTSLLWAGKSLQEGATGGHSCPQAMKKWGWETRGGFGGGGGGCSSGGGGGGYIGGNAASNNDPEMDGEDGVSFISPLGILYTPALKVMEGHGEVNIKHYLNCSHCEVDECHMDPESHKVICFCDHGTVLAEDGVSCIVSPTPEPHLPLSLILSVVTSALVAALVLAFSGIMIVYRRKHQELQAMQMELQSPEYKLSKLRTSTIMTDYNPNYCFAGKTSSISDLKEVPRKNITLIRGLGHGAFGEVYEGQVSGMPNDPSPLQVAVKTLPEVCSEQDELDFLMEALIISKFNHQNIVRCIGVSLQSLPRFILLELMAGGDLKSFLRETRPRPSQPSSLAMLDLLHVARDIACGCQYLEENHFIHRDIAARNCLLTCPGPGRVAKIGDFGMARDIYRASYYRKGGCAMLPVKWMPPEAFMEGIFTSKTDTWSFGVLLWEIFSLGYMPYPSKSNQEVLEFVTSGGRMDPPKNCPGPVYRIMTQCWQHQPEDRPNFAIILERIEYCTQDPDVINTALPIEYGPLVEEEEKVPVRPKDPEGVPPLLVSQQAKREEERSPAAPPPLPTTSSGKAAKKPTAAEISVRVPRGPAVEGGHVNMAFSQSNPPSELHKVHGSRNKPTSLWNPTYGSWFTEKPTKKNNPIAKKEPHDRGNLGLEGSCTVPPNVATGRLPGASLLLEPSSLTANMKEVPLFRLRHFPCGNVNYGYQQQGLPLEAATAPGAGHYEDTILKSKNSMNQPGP
# Chain of UniProt Q8N5S9 (whole entry, looked up): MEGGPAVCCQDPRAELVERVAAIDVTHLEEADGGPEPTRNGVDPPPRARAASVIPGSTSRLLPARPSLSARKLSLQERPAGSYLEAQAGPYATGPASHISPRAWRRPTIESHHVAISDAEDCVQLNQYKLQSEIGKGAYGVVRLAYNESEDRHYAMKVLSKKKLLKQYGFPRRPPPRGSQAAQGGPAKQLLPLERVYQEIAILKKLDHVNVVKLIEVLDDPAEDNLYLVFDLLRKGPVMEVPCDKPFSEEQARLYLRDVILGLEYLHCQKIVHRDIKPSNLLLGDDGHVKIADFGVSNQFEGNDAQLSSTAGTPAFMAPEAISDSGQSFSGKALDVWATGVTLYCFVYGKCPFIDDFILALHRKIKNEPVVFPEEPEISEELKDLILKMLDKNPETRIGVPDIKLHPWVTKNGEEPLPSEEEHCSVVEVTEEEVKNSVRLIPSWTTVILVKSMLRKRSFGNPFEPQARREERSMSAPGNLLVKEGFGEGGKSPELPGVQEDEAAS
# Chain of UniProt Q9BZL6 (whole entry, looked up): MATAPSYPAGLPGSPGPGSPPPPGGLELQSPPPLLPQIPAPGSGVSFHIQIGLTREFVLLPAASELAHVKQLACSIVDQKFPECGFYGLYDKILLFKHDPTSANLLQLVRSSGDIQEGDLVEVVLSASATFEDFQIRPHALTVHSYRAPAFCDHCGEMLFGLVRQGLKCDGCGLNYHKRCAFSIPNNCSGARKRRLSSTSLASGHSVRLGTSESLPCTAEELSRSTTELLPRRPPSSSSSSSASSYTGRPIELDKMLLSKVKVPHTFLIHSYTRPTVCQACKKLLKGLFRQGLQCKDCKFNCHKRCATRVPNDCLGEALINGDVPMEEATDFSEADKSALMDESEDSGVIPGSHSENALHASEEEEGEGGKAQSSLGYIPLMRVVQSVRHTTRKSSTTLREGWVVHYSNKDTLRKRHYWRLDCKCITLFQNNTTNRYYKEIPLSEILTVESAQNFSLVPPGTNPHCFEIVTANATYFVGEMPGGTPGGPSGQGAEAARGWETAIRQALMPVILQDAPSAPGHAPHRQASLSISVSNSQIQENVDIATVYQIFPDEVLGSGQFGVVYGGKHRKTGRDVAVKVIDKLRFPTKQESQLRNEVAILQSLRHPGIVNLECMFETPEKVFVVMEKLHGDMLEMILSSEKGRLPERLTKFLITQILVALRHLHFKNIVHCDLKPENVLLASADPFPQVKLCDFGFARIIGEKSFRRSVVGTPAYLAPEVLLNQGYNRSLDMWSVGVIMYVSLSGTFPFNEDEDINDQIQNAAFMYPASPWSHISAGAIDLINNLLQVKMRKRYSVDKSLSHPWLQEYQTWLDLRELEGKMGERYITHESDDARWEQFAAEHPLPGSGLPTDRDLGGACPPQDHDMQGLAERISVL
# Chain of UniProt P15056 (whole entry, unmodified, looked up): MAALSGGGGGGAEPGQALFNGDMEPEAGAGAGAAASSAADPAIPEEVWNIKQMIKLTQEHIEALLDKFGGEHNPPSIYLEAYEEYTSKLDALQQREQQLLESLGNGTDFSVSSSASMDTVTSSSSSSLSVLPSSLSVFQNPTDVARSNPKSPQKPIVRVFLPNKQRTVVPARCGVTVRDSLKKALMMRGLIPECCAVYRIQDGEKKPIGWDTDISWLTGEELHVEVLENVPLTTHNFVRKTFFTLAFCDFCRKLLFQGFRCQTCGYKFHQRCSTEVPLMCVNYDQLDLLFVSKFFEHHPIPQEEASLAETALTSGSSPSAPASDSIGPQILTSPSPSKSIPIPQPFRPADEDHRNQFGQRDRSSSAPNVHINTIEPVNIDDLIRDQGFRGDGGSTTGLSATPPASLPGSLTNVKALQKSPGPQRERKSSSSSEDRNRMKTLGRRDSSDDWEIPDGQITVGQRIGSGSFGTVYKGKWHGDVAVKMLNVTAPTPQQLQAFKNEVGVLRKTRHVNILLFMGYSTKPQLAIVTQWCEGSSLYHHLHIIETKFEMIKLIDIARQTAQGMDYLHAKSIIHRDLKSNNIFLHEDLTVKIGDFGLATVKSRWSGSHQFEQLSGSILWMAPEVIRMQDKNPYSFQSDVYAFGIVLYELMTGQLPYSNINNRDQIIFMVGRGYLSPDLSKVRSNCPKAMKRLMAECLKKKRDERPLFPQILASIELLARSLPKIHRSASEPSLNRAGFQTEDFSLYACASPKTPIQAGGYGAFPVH

# Set 1
# Target: Calcium/calmodulin-dependent protein kinase type II subunit alpha (CAMK2A, Homo sapiens, UniProt Q9UQM7)
# Chain of UniProt Q9UQM7 (whole entry, looked up): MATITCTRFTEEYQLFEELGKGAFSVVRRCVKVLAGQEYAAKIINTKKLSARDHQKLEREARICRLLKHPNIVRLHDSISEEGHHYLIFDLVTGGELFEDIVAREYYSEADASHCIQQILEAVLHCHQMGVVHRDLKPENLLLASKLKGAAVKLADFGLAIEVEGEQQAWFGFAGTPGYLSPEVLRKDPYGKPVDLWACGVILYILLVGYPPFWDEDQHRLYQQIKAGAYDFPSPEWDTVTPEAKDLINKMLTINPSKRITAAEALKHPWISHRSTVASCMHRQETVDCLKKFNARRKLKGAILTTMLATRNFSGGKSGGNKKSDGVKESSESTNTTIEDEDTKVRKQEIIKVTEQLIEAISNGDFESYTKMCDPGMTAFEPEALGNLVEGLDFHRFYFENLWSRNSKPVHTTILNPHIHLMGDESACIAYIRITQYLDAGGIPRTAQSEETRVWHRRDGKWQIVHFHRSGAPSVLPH
# Effect on: enzyme activity
# Mode: inhibitor
# Concentration: 10 µM
SMILES,inhibition [%]
CC(C)CCCCCCCCCCCC(=O)O,-100
COc1ccc(O)c(C(=O)O)c1,-1
COc1nccc(N)n1,28
C[C@H](CCC(=O)O)[C@H]1CC[C@H]2[C@@H]3[C@H](O)CC4=CC(=O)CC[C@]4(C)[C@H]3CC[C@]12C,4
O=C(O)Cc1ccc(O)c(O)c1,-30
COc1cc(C(=O)NC2CCCNC2)cc(OC)c1OC (stereo not drawn),-8
Nc1nc(N)c(O[C@@H]2O[C@H](CO)[C@@H](O)[C@H](O)[C@H]2O)c(=O)[nH]1,-40
C/C=C(/C)C(=O)OC(C)(C)[C@@H]1Cc2c(ccc3ccc(=O)oc23)O1,-1

# Set 2
# Structure (SMILES): COc1cc(C(=O)N2CCC(N3CCN(C)CC3)CC2)ccc1Nc1ncc2c(n1)N(C)c1ccccc1C(=O)N2C
# Mode: inhibitor
# Concentration: 5 µM
target,assay,system,conditions,scale,log2 fold change
kinase–CDC37 interaction,kinase–CDC37 binding,human cells,oncogenic MSN-ALK fusion,baseline: vehicle,-0.35
"ALK tyrosine kinase receptor (ALK, Homo sapiens, UniProt Q9UM73, F1174L)",cell-based kinome profiling,human cells,,baseline: vehicle control,-0.269
"Serine/threonine-protein kinase B-raf (BRAF, Homo sapiens, UniProt P15056, G469A)",cell-based kinome profiling,human cells,,baseline: vehicle control,0.044
"Interleukin-1 receptor-associated kinase-like 2 (IRAK2, Homo sapiens, UniProt O43187)",cell-based kinome screen,human cells,,baseline: vehicle,-0.179
kinase–CDC37 interaction,kinase–CDC37 binding,human cells,oncogenic ETV6-PDGFRA fusion,baseline: vehicle,0.224
"Aurora kinase C (AURKC, Homo sapiens, UniProt Q9UQB9)",cell-based kinome profiling,human cells,,baseline: vehicle control,0.051
"Calcium/calmodulin-dependent protein kinase type II subunit beta (CAMK2B, Homo sapiens, UniProt Q13554)",cell-based kinome profiling,human cells,,baseline: vehicle control,-0.345
"Serine/threonine-protein kinase DCLK2 (DCLK2, Homo sapiens, UniProt Q8N568)",,human cells,,baseline: vehicle,0.154

# Set 3
# Organism: Sarcocystis neurona
# Effect on: parasite growth
# Concentration: 10 µM
# Time: 96 h
# Notes: first screen
Structure (SMILES),inhibition [%]
CC(C)C[C@H](NC(=O)[C@@H](O)[C@H](N)Cc1ccccc1)C(=O)O,11.3
CNNCc1ccc(C(=O)NC(C)C)cc1,0.379
Nc1nc(Cl)nc2c1ncn2[C@H]1C[C@H](O)[C@@H](CO)O1,-6.7
C#C[C@]1(O)CC[C@H]2[C@@H]3CCC4=CC(=O)CC[C@@H]4[C@H]3CC[C@@]21C,-14.3
CN(C)CCCN1c2ccccc2CCc2ccc(Cl)cc21,18.6
CC(C)(C#N)c1cc(Cn2cncn2)cc(C(C)(C)C#N)c1,8.1
CC[C@H]1OC(=O)[C@H](C)C(=O)[C@H](C)[C@@H](O[C@@H]2O[C@H](C)C[C@H](N(C)C)[C@H]2O)[C@](C)(OC)C[C@@H](C)C(=O)[C@H](C)[C@H]2N(CCCCn3cnc(-c4cccnc4)c3)C(=O)O[C@]12C,11.9
CC1COc2c(N3CCN(C)CC3)c(F)cc3c(=O)c(C(=O)O)cn1c23 (stereo not drawn),19.7

# Set 4
# SMILES: CC(=O)C1=C(C)N(c2cccc(C(F)(F)F)c2)C(=O)N[C@@H]1c1ccc(C#N)nc1
# Method: competition with immobilised ligand
# Concentration: 1 µM
target,assay,remaining binding
"Proto-oncogene tyrosine-protein kinase receptor Ret (RET, Homo sapiens, UniProt P07949)",cell-free assay,92.4%
"Serine/threonine-protein kinase Nek9 (NEK9, Homo sapiens, UniProt Q8TD19)",cell-free assay,100%
"Ephrin type-A receptor 3 (EPHA3, Homo sapiens, UniProt P29320)",cell-free assay,100%
"Serine/threonine-protein kinase mTOR (MTOR, Homo sapiens, UniProt P42345)",cell-free assay,92.5%
"Tyrosine-protein kinase receptor Tie-1 (TIE1, Homo sapiens, UniProt P35590)",cell-free assay,89.9%
"Serine/threonine-protein kinase PAK 4 (PAK4, Homo sapiens, UniProt O96013)",cell-free assay,97.9%
"Tyrosine-protein kinase ABL1, phosphorylated (ABL1, Homo sapiens, UniProt P00519, E255K)",binding,75%
"Mitogen-activated protein kinase 13 (MAPK13, Homo sapiens, UniProt O15264)",cell-free assay,74.6%
"Epidermal growth factor receptor (EGFR, Homo sapiens, UniProt P00533)",cell-free assay,78.2%
"Serine/threonine-protein kinase MARK2 (MARK2, Homo sapiens, UniProt Q7KZI7)",cell-free assay,100%
"Serine/threonine-protein kinase tousled-like 1 (TLK1, Homo sapiens, UniProt Q9UKI8)",cell-free assay,85.3%
"Ribosomal protein S6 kinase alpha-1, C-terminal kinase domain (RPS6KA1, Homo sapiens, UniProt Q15418)",cell-free assay,91.5%
"Calcium/calmodulin-dependent protein kinase kinase 1 (CAMKK1, Homo sapiens, UniProt Q8N5S9)",cell-free assay,100%
"Tyrosine-protein kinase Fyn (FYN, Homo sapiens, UniProt P06241)",cell-free assay,100%
"Serine/threonine-protein kinase D2 (PRKD2, Homo sapiens, UniProt Q9BZL6)",cell-free assay,98.8%
"MAP/microtubule affinity-regulating kinase 3 (MARK3, Homo sapiens, UniProt P27448)",cell-free assay,100%
"Atypical kinase COQ8B, mitochondrial (COQ8B, Homo sapiens, UniProt Q96D53)",cell-free assay,100%
"Serine/threonine-protein kinase TBK1 (TBK1, Homo sapiens, UniProt Q9UHD2)",cell-free assay,89.5%
"Mitogen-activated protein kinase kinase kinase 10 (MAP3K10, Homo sapiens, UniProt Q02779)",cell-free assay,92.1%
"Ephrin type-B receptor 4 (EPHB4, Homo sapiens, UniProt P54760)",cell-free assay,100%
"Cyclin-dependent kinase 4, with cyclin D1 (CDK4, Homo sapiens, UniProt P11802)",cell-free assay,100%
"Tyrosine-protein kinase BTK (BTK, Homo sapiens, UniProt Q06187)",cell-free assay,100%
"Phosphatidylinositol 4,5-bisphosphate 3-kinase catalytic subunit alpha isoform (PIK3CA, Homo sapiens, UniProt P42336, C420R)",cell-free assay,100%
"Ephrin type-A receptor 6 (EPHA6, Homo sapiens, UniProt Q9UF33)",cell-free assay,94.5%
"Serine/threonine-protein kinase Nek1 (NEK1, Homo sapiens, UniProt Q96PY6)",cell-free assay,100%

# Set 5
# SMILES: COc1cc(C(=O)N2CCC(N3CCN(C)CC3)CC2)ccc1Nc1ncc2c(n1)N(C)c1ccccc1C(=O)N2C
target,assay,system,conditions,inhibition [%]
mouse FAK,"probe labelling, KiNativ ATP probe",mouse brain lysate,1 µM,9.6
WNK1/WNK2 (mouse),"probe labelling, inhibitor, KiNativ ActivX ADP probe",mouse brain lysate,"1 µM, ATP loop peptide GSFkTVYK",13.4
NEK9 (human),"probe labelling, KiNativ ATP probe",human PBMC lysate,"concentration not given, LYS2 labelled site",-4
eEF2K human,KiNativ profiling,human PBMC lysate,"concentration not given, ATP probe, kinase domain site",7.5
CDK5 (mouse),"probe labelling, KiNativ, refers to: DLkPQNLLINR peptide, LYS2 site",brain tissue lysate (mouse),"0.1 µM, with: ATP acyl-phosphate probe",-4.7

# Excerpt of the above (set 1):
SMILES,inhibition [%]
CC(C)CCCCCCCCCCCC(=O)O,-100
COc1ccc(O)c(C(=O)O)c1,-1
COc1nccc(N)n1,28
C[C@H](CCC(=O)O)[C@H]1CC[C@H]2[C@@H]3[C@H](O)CC4=CC(=O)CC[C@]4(C)[C@H]3CC[C@]12C,4
O=C(O)Cc1ccc(O)c(O)c1,-30
COc1cc(C(=O)NC2CCCNC2)cc(OC)c1OC (stereo not drawn),-8
Nc1nc(N)c(O[C@@H]2O[C@H](CO)[C@@H](O)[C@H](O)[C@H]2O)c(=O)[nH]1,-40
C/C=C(/C)C(=O)OC(C)(C)[C@@H]1Cc2c(ccc3ccc(=O)oc23)O1,-1
